{"data": "Results gathered from unrelated publications", "B1": "enzyme (Listeria monocytogenes, UniProt Q8Y7B6); chain MSFDVLTINPGSTSTKLAVYQGDKVLFEETVRHTMQELADFNNVQEQFDFRWQVLRRVMDAHGYDVKKLQAVVGRGGLLRPVAGGTYMVTEKMIDDLKENKYGEHASNLGAMLAKKLADELTIPSFIVDPVVVDEMQEIARISGNAFVTRKSIFHALNHKAAGRKIAKELGKDYEKMNFVIAHLGGGISVAAHRQGKAVDVNNALDGDGPFSPERSGSLPMNDFLEACFSGKWTKRELHELIVGRGGMISYLGTNSMLEVEAKVQAGEEKAIEAFDAMAYQVSKEIGACSVVLQGKVDAIILTGGLARSELFTSKIIEQTNWITSVIIEPGEDELEALNSGVQRVLAGLEKEKEY", "B2": "susA (Bacteroides thetaiotaomicron, UniProt Q8A1G0); chain TSTIKKVAPTFWWAGMKNPELQILLYGDRISSADVSLSADNITLQEVVKQENPNYLVLYLDLSKAAPQNFDIILKQGKKQTKIPYELKQRRPNASAVEGFDSSDVLYLIMPDRFANGNPSNDIIPGMLEGNVDRNEPFARHGGDLKGIENHLDYIADLGVTSIWLNPIQENDMKEGSYHGYAITDYYQVDRRFGSNEEFRKLTQEANAKGLKVVMDMIFNHCGSDNYLFKDMPSKDWFNFEGNYVQTSFKTATQMDPYASDYEKKIAIDGWFTLTMPDFNQRNRHVATYLIQSSIWWIEYAGINGIRQDTHPYADFDMMARWCKAVNEEYPKFNIVGETWLGNNVLISYWQKDSRLAYPKNSNLPTVMDFPLMEEMNKAFDEETTEWNGGLFRLYEYLSQDIVYSHPMSLLTFLDNHDTSRFYRSEADTKNLDRYKQALTFLLTTRGIPQIYYGTEILMAADKANGDGLLRCDFPGGWPNDTKNCFDAANRTPQQNEAFSFMQKLLQWRKGNEVIAKGQLKHFAPNKGVYVYERKYGDKSVVVFLNGNDREQTIDLVPYQEILPASSAFDLLTEKKVELRNELTLPSREIYLLSF", "B3": "enzyme (Bacteroides thetaiotaomicron, UniProt Q8A947); chain MIKNIVFDFGGVIVDIDRDKAVQAFIKLGLADADTRLDKYHQTGIFQELEEGKLSADEFRKQLGDLCGRELTMEETKQAWLGFFNEVDLRKLDYILGLRKSYHVYLLSNTNPFVMSWACSPEFSSEGKPLNDYCDKLYLSYQLGHTKPAPEIFDFMIKDSHVIPSETLFVDDGSSNIHIGKELGFETFQPENGADWRQELTVILNS", "note": "Each line is one published result; not all experiments were run side by side. Values joined by “and” are separate records of one study, mostly repeats; a detail may differ. Numbers after ± are the reported error."}
{"Substance": "B1 (enzyme)", "target or system": "CCC(CC)C(=O)O", "assay": "steady-state kinetics", "conditions": "pH 7.5, 37 °C", "quantity": "Km", "value": "16.5 mM"}
{"Substance": "B2 (susA)", "target or system": "O=[N+]([O-])c1ccc(O[C@H]2O[C@H](CO)[C@@H](O[C@H]3O[C@H](CO)[C@@H](O[C@H]4O[C@H](CO)[C@@H](O[C@H]5O[C@H](CO)[C@@H](O[C@H]6O[C@H](CO)[C@@H](O[C@H]7O[C@H](CO)[C@@H](O)[C@H](O)[C@H]7O)[C@H](O)[C@H]6O)[C@H](O)[C@H]5O)[C@H](O)[C@H]4O)[C@H](O)[C@H]3O)[C@H](O)[C@H]2O)cc1", "assay": "steady-state kinetics", "conditions": "pH 7", "quantity": "Km", "value": "0.117 mM"}
{"Substance": "N#CCC1CCN(c2nc(Nc3ccc(N4CCC(O)CC4)cc3)c3c(=O)[nH]ncc3n2)CC1", "assay": "vs placebo, Olink multiplex", "system": "human, serum", "conditions": "20 mg, day 29, unit not given", "how to read": "reference: placebo", "quantity": "IL-18 level difference", "value": -1.05}
{"Substance": "Fc1ccccc1Cc1nc(-c2nc(C(F)(F)F)n[nH]2)cn2ccnc12", "assay": "item: Myalgia", "system": "healthy humans", "conditions": "oral, 10 mg, fasted, single dose", "quantity": "subjects with adverse events", "value": "7.1%"}
{"Substance": "COC(=O)Nc1c(N)nc(-c2nn(Cc3ccccc3F)c3ncc(F)cc23)nc1N", "system": "healthy male humans, plasma", "conditions": "2.5 mg, phase I DDI study, with: sacubitril/valsartan", "quantity": "AUC(0-24)", "value": "904 ng·h/mL"}
{"Substance": "B3 (enzyme)", "target or system": "Nc1c(NC[C@H](O)[C@H](O)[C@H](O)COP(=O)(O)O)[nH]c(=O)[nH]c1=O", "assay": "steady-state kinetics", "conditions": "pH 7.5, 25 °C", "quantity": "kcat/Km", "value": "160 M⁻¹ s⁻¹"}
{"Substance": "susB (Bacteroides thetaiotaomicron, UniProt G8JZS4)", "target or system": "O=[N+]([O-])c1ccc(O[C@H]2O[C@H](CO)[C@@H](O)[C@H](O)[C@H]2O)cc1", "assay": "steady-state kinetics", "conditions": "pH 6.6", "quantity": "kcat", "value": "23.9 ± 1.1 s⁻¹"}
{"Substance": "COc1cc([C@@H]2c3cc4c(cc3[C@@H](O[C@@H]3O[C@@H]5CO[C@@H](C)O[C@H]5[C@H](O)[C@H]3O)[C@H]3COC(=O)[C@H]23)OCO4)cc(OC)c1O", "target or system": "TOP2B (Homo sapiens, UniProt Q02880)", "assay": "decatenation", "conditions": "100 µM, replicate 2", "quantity": "decatenated DNA", "value": "83% and 100%"}
{"note": "A few entries again:"}
{"Substance": "N#CCC1CCN(c2nc(Nc3ccc(N4CCC(O)CC4)cc3)c3c(=O)[nH]ncc3n2)CC1", "assay": "vs placebo, Olink multiplex", "system": "human, serum", "conditions": "20 mg, day 29, unit not given", "how to read": "reference: placebo", "quantity": "IL-18 level difference", "value": -1.05}
